# Measurements pooled from the literature.
# ± marks the error that the study gave.
# Organism: Escherichia coli
SMILES,assay,test system,setting,endpoint,result
CC(C)C[C@H](NC(=O)[C@H](CC(C)C)NC(=O)[C@H](CCCCN)NC(=O)[C@H](CC(C)C)NC(=O)[C@H](CC(C)C)NC(=O)[C@H](CCCCN)NC(=O)[C@H](CCCCN)NC(=O)[C@H](CC(C)C)NC(=O)[C@H](CC(C)C)NC(=O)[C@H](CCCCN)NC(=O)[C@H](CCCCN)NC(=O)[C@H](CC(C)C)NC(=O)[C@H](CC(C)C)NC(=O)[C@H](CCCCN)NC(=O)[C@@H](N)CC(C)C)C(N)=O,,"ATCC 8937, RPMI medium","24 h, 37 °C",LC99.9,3.7 µM
CC(CCC(=O)[O-])C1CCC2C3CCC4CC(O)CCC4(C)C3CC(O)C12C.C[N+](C)(C)CC(O)CC(=O)O (stereo not drawn),,TISTR 117,"1 mg per disc, 18 to 24 h, 37 °C, 6 mm disc",inhibition zone diameter,9.5 ± 0.4 mm
Cc1cc(-c2ccc3ccn(CC(=O)O)c(=O)c3c2)ccc1O[C@H]1O[C@H](CO)[C@@H](O)[C@H](O)[C@@H]1O,biofilm formation,UPEC UTI89,,IC50,0.12 µM
ONCc1cc(C(F)(F)F)cc(C(F)(F)F)c1,microbial growth,,8 h,MIC50,< 60 µg/mL
CCCCCCCC(=O)NCC(=O)N[C@@H](CC(C)C)C(=O)N[C@@H](CC(C)C)C(=O)N[C@@H](CCCCN)C(=O)N[C@@H](CCCNC(=N)N)C(=O)N[C@H](C(=O)N[C@@H](CCCCN)C(=O)N[C@H](C(=O)N[C@@H](CC(C)C)C(=O)N[C@@H](CC(C)C)C(N)=O)[C@@H](C)O)[C@@H](C)CC,checkerboard,ATCC 25922,added: gentamicin,FIC index,0.5
CCCCCCCCCCCCCC(=O)NCCCC[C@H](N)C(=O)N[C@@H](CCCCN)C(=O)N[C@@H](CCCCN)C(=O)N[C@@H](CCCCN)C(=O)N[C@@H](CCCCN)C(=O)N[C@@H](CCCCN)C(N)=O,,K12,,MBC,128 µg/mL
CC[C@H](C)[C@H](NC(=O)[C@H](CO)NC(=O)[C@H](CO)NC(=O)[C@H](Cc1ccccc1)NC(=O)CN)C(=O)N[C@@H](Cc1ccccc1)C(=O)N[C@@H](CCCNC(=N)N)C(=O)NCC(=O)N[C@H](C(=O)N[C@@H](C)C(=O)N[C@@H](CCCCN)C(=O)N[C@@H](Cc1ccccc1)C(=O)N[C@@H](C)C(=O)N[C@@H](CO)C(=O)N[C@@H](CCCCN)C(=O)NCC(=O)N[C@@H](CC(C)C)C(=O)NCC(=O)N[C@@H](CCCCN)C(N)=O)C(C)C,,ATCC 8739,pretreated trypsin 0.5 mg/mL,MBC,> 128 µM
CC[C@H](C)[C@H](NC(=O)[C@H](CCCCN)NC(=O)[C@H](CCCCN)NC(=O)[C@H](CC(C)C)NC(=O)[C@H](CCCCN)NC(=O)[C@H](CCC(=O)O)NC(=O)[C@H](CCCCN)NC(=O)[C@@H](NC(=O)[C@H](CCCCN)NC(=O)[C@H](CC(N)=O)NC(=O)[C@H](CCCNC(=N)N)NC(=O)[C@H](Cc1ccccc1)NC(=O)[C@H](CCCCN)NC(=O)[C@H](CCCNC(=N)N)NC(=O)[C@H](CC(C)C)NC(=O)[C@H](CCCNC(=N)N)NC(=O)[C@H](CCCCN)NC(=O)[C@H](CCCNC(=N)N)NC(=O)[C@H](CC(C)C)NC(=O)[C@@H](N)CC(C)C)[C@@H](C)CC)C(=O)NCC(=O)N[C@@H](CCC(N)=O)C(=O)N[C@@H](CCCCN)C(=O)N[C@H](C(=O)N[C@@H](CCC(N)=O)C(=O)NCC(=O)N[C@@H](Cc1ccccc1)C(=O)N[C@H](C(=O)N1CCC[C@H]1C(=O)N[C@@H](CCCCN)C(=O)N[C@@H](CC(C)C)C(=O)N[C@H](C(=O)N1CCC[C@H]1C(=O)N[C@@H](CCCNC(=N)N)C(=O)N[C@H](C(=O)N[C@@H](CCC(=O)O)C(=O)N[C@@H](CO)C(=O)O)[C@@H](C)O)C(C)C)C(C)C)[C@@H](C)CC,inhibition zone,ATCC 25922,,lethal concentration,2.07 µM
O=C(O)[C@@H]1Cc2c([nH]c3ccccc23)[C@@H](c2ccc(Cl)cc2Br)N1,,BL21(DE3),"125 µM, 18 h",growth inhibition,0%
CC[C@H](C)[C@H](NC(=O)[C@H](CCCCN)NC(=O)[C@H](CCCCN)NC(=O)[C@H](CC(C)C)NC(=O)[C@H](CCCCN)NC(=O)[C@H](CCC(=O)O)NC(=O)[C@H](CCCCN)NC(=O)[C@@H](NC(=O)[C@H](CCCCN)NC(=O)[C@H](CC(N)=O)NC(=O)[C@H](CCCNC(=N)N)NC(=O)[C@H](Cc1ccccc1)NC(=O)[C@H](CCCCN)NC(=O)[C@H](CCCNC(=N)N)NC(=O)[C@H](CC(C)C)NC(=O)[C@H](CCCNC(=N)N)NC(=O)[C@H](CCCCN)NC(=O)[C@H](CCCNC(=N)N)NC(=O)[C@H](CC(C)C)NC(=O)CN)[C@@H](C)CC)C(=O)NCC(=O)N[C@@H](CCC(N)=O)C(=O)N[C@@H](CCCCN)C(=O)N[C@H](C(=O)N[C@@H](CCC(N)=O)C(=O)NCC(=O)N[C@@H](Cc1ccccc1)C(=O)N[C@H](C(=O)N1CCC[C@H]1C(=O)N[C@@H](CCCCN)C(=O)N[C@@H](CC(C)C)C(=O)N[C@@H](C)C(=O)N1CCC[C@H]1C(=O)N[C@@H](CCCNC(=N)N)C(=O)N[C@H](C(=O)N[C@@H](CC(=O)O)C(=O)N[C@@H](Cc1ccc(O)cc1)C(=O)O)[C@@H](C)O)C(C)C)[C@@H](C)CC,inhibition zone,ATCC 25922,,lethal concentration,1.46 µM
CC(C)C[C@H](NC(=O)[C@H](CCCNC(=N)N)NC(=O)CNC(=O)CNC(=O)[C@@H](N)CCCNC(=N)N)C(=O)N[C@H]1CSSC[C@@H](C(=O)N[C@H](C(=O)NCC(=O)N[C@@H](CCCNC(=N)N)C(=O)O)C(C)C)NC(=O)[C@H](C(C)C)NC(=O)[C@@H]2CSSC[C@H](NC(=O)[C@H](Cc3ccc(O)cc3)NC1=O)C(=O)N[C@@H](CCCNC(=N)N)C(=O)N[C@@H](CCCNC(=N)N)C(=O)N[C@@H](CCCNC(=N)N)C(=O)N[C@@H](Cc1ccccc1)C(=O)N2,kill curve,W3110,8 µg/mL,time to near complete killing,≤ 30 min
CCCC(=O)NCC(=O)N[C@@H](CC(C)C)C(=O)N[C@@H](CC(C)C)C(=O)N[C@@H](CCCCN)C(=O)N[C@@H](CCCNC(=N)N)C(=O)N[C@H](C(=O)N[C@@H](CCCCN)C(=O)N[C@H](C(=O)N[C@@H](CC(C)C)C(=O)N[C@@H](CC(C)C)C(=O)NCCCC[C@H](NC(=O)[C@H](CC(C)C)NC(=O)[C@H](CC(C)C)NC(=O)[C@@H](NC(=O)[C@H](CCCCN)NC(=O)[C@@H](NC(=O)[C@H](CCCNC(=N)N)NC(=O)[C@H](CCCCN)NC(=O)[C@H](CC(C)C)NC(=O)[C@H](CC(C)C)NC(=O)CNC(=O)CCC)[C@@H](C)CC)[C@@H](C)O)C(=O)NCCCC[C@H](NC(=O)[C@H](CCCCNC(=O)[C@H](CC(C)C)NC(=O)[C@H](CC(C)C)NC(=O)[C@@H](NC(=O)[C@H](CCCCN)NC(=O)[C@@H](NC(=O)[C@H](CCCNC(=N)N)NC(=O)[C@H](CCCCN)NC(=O)[C@H](CC(C)C)NC(=O)[C@H](CC(C)C)NC(=O)CNC(=O)CCC)[C@@H](C)CC)[C@@H](C)O)NC(=O)[C@H](CC(C)C)NC(=O)[C@H](CC(C)C)NC(=O)[C@@H](NC(=O)[C@H](CCCCN)NC(=O)[C@@H](NC(=O)[C@H](CCCNC(=N)N)NC(=O)[C@H](CCCCN)NC(=O)[C@H](CC(C)C)NC(=O)[C@H](CC(C)C)NC(=O)CNC(=O)CCC)[C@@H](C)CC)[C@@H](C)O)C(N)=O)[C@@H](C)O)[C@@H](C)CC,checkerboard,ATCC 25922,added: rifampicin,FIC index,0.125

# Repeated from above:
SMILES,assay,test system,setting,endpoint,result
CC[C@H](C)[C@H](NC(=O)[C@H](CCCCN)NC(=O)[C@H](CCCCN)NC(=O)[C@H](CC(C)C)NC(=O)[C@H](CCCCN)NC(=O)[C@H](CCC(=O)O)NC(=O)[C@H](CCCCN)NC(=O)[C@@H](NC(=O)[C@H](CCCCN)NC(=O)[C@H](CC(N)=O)NC(=O)[C@H](CCCNC(=N)N)NC(=O)[C@H](Cc1ccccc1)NC(=O)[C@H](CCCCN)NC(=O)[C@H](CCCNC(=N)N)NC(=O)[C@H](CC(C)C)NC(=O)[C@H](CCCNC(=N)N)NC(=O)[C@H](CCCCN)NC(=O)[C@H](CCCNC(=N)N)NC(=O)[C@H](CC(C)C)NC(=O)CN)[C@@H](C)CC)C(=O)NCC(=O)N[C@@H](CCC(N)=O)C(=O)N[C@@H](CCCCN)C(=O)N[C@H](C(=O)N[C@@H](CCC(N)=O)C(=O)NCC(=O)N[C@@H](Cc1ccccc1)C(=O)N[C@H](C(=O)N1CCC[C@H]1C(=O)N[C@@H](CCCCN)C(=O)N[C@@H](CC(C)C)C(=O)N[C@@H](C)C(=O)N1CCC[C@H]1C(=O)N[C@@H](CCCNC(=N)N)C(=O)N[C@H](C(=O)N[C@@H](CC(=O)O)C(=O)N[C@@H](Cc1ccc(O)cc1)C(=O)O)[C@@H](C)O)C(C)C)[C@@H](C)CC,inhibition zone,ATCC 25922,,lethal concentration,1.46 µM
